{"data": "Assay results gathered from unrelated publications", "note": "Parts stem from different laboratories: compare values within a part only. Positions count from the first letter of the parent shown."}
{"data": "Block 1", "target": "Interferon regulatory factor 5, full length, phosphomimetic (IRF5, Homo sapiens, UniProt Q13568-2, residues 1-514, S451D/S453D/S456D/S462D)", "technique": "protein-binding microarray", "molecule type": "double-stranded DNA, one strand shown", "medium": "in vitro", "concentration": "940 nM top", "notes": "60-bp whole probe", "with": "salmon DNA 0.4 mg/ml", "baseline": "random background probes", "direction": "higher = stronger binding", "shared flanks, not repeated": "GCCTAGCAC … GTCTTGATTCGCTTGACGCTGCTG"}
{"Oligonucleotide": "TTAGGTCTCGGTTTCAGTTAGTGCTAG", "fitted relative affinity": "6.39 z-score"}
{"Oligonucleotide": "CTGTTTTTGCTTTCCTTCTTGTGCTAG", "fitted relative affinity": "2.28 z-score"}
{"Oligonucleotide": "TCATTTATTTATTTTTAACTGTGCTAG", "fitted relative affinity": "0.897 z-score"}
{"Oligonucleotide": "GACGGTTTCGGGACTGCGGACGTGCTA", "fitted relative affinity": "6.64 z-score"}
{"Oligonucleotide": "TCATACATGGGTATAGAACTGTGCTAG", "fitted relative affinity": "-0.222 z-score"}
{"Oligonucleotide": "TCACTTTCAGTTTTCCTACTGTGCTAG", "fitted relative affinity": "4.42 z-score"}
{"Oligonucleotide": "TTAGGTATCCTTATCCTTGAGTGCTAG", "fitted relative affinity": "0.394 z-score"}
{"Oligonucleotide": "TTAGGTTCTGGTTTCGGTTAGTGCTAG", "fitted relative affinity": "8.83 z-score"}
{"Oligonucleotide": "TCACTTTTCTGTTGTCTGACTGTGCTA", "fitted relative affinity": "1.78 z-score"}
{"Oligonucleotide": "TCATTTTCATTTTATGACACTGTGCTA", "fitted relative affinity": "1.24 z-score"}
{"Oligonucleotide": "GACGGTAGCGACTATCGGGACGTGCTA", "fitted relative affinity": "0.0217 z-score"}
{"data": "Block 2", "target": "CCND1, cyclin fold, Cln2 fusion (human)", "technique": "yeast growth competition, sequencing", "medium": "yeast", "notes": "strong parent motif", "baseline": "not given", "direction": "higher = stronger binding", "parent": "SCAPER docking peptide (human); SNARRSLNFGGST"}
{"Substitution": "T13N", "normalised enrichment score": 1.26}
{"Substitution": "G11R", "normalised enrichment score": -0.217}
{"Substitution": "A3G", "normalised enrichment score": -0.17}
{"Substitution": "R5H", "normalised enrichment score": 0.435}
{"Substitution": "T13G", "normalised enrichment score": 0.792}
{"Substitution": "R5W", "normalised enrichment score": -0.0807}
{"Substitution": "S1T", "normalised enrichment score": 1.09}
{"data": "Block 3", "target": "Centromere-binding protein 1, full length, His-tagged (CBF1, Saccharomyces cerevisiae, UniProt P17106, residues 1-351)", "technique": "competition protein-binding microarray", "molecule type": "double-stranded DNA, one strand shown", "medium": "in vitro", "concentration": "2 µM", "notes": "whole 60-bp probe, lowest competitor level", "with": "Pho4 competitor, 0.05 µM", "direction": "higher = stronger binding", "shared flanks, not repeated": "… GTCTTGATTCGCTTGACGCTGCTG", "chain of UniProt P17106 (whole entry, looked up)": "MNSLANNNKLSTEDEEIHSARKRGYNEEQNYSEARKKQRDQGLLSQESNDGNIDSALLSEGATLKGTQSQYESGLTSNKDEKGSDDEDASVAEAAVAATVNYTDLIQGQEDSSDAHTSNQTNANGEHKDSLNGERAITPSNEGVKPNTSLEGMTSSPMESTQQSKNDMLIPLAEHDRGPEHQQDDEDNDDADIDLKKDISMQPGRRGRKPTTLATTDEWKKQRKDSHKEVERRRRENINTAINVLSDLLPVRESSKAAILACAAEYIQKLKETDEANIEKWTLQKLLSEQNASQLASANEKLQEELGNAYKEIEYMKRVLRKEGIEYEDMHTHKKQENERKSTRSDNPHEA"}
{"Oligonucleotide": "AAATTACTAAGTTGTTATGTGGGTGACGCCGTATGA", "fluorescence intensity": "73.7 a.u."}
{"Oligonucleotide": "CGGGGTTAAGTTTGTCACTAAACTTGCTTGCAGCAG", "fluorescence intensity": "81 a.u."}
{"Oligonucleotide": "ATATCCACAGTATATGGCGTGCAAAGATAAGGCTCG", "fluorescence intensity": "117 a.u."}
{"Oligonucleotide": "AAAGCGGTAATTTGTCGCGTGGGTGCAGATATCTAT", "fluorescence intensity": "97.7 a.u."}
{"Oligonucleotide": "AAAGCGGTAATTTGCCACGTGGGTGCAGATATCTAT", "fluorescence intensity": "1420 a.u."}
{"Oligonucleotide": "CGCAGCCTCTACCGTCACGTGTAACAGTACGGCAGG", "fluorescence intensity": "3670 a.u."}
{"Oligonucleotide": "ACCATCTTGACTAACAACGTGTACAACTCTTTTGAA", "fluorescence intensity": "111 a.u."}
{"Oligonucleotide": "TACTGCTTCCAGGTCCACGTTCTTCTTTTTGCCTCC", "fluorescence intensity": "86 a.u."}
{"data": "Further values, each from its own experiment"}
{"Molecule": "PhoQ, residues 284 288 289 292 302 303 AMDMFI", "target": "PhoP, residues 12 14 15 18 19 YHFSH (Escherichia coli, UniProt P23836)", "test": "Sort-seq, measured: YFP reporter", "system": "E. coli", "conditions": "PhoQ-PhoP variant library, with: 10 µM Mg2+", "scale": "baseline: high Mg2+ state, higher = stronger signaling", "quantity": "fold induction", "result": 0.759}
{"note": "For quick reference, copied from above (block 2):"}
{"Substitution": "T13N", "normalised enrichment score": 1.26}
{"Substitution": "T13G", "normalised enrichment score": 0.792}
{"Substitution": "G11R", "normalised enrichment score": -0.217}
{"Substitution": "S1T", "normalised enrichment score": 1.09}
